{"data": "Published values collected from several papers", "note": "Every numbered part comes from another study and shows a few of its results, in no order. Substitutions count along the parent as printed.", "sequence of UniProt P35916 (whole entry, looked up)": "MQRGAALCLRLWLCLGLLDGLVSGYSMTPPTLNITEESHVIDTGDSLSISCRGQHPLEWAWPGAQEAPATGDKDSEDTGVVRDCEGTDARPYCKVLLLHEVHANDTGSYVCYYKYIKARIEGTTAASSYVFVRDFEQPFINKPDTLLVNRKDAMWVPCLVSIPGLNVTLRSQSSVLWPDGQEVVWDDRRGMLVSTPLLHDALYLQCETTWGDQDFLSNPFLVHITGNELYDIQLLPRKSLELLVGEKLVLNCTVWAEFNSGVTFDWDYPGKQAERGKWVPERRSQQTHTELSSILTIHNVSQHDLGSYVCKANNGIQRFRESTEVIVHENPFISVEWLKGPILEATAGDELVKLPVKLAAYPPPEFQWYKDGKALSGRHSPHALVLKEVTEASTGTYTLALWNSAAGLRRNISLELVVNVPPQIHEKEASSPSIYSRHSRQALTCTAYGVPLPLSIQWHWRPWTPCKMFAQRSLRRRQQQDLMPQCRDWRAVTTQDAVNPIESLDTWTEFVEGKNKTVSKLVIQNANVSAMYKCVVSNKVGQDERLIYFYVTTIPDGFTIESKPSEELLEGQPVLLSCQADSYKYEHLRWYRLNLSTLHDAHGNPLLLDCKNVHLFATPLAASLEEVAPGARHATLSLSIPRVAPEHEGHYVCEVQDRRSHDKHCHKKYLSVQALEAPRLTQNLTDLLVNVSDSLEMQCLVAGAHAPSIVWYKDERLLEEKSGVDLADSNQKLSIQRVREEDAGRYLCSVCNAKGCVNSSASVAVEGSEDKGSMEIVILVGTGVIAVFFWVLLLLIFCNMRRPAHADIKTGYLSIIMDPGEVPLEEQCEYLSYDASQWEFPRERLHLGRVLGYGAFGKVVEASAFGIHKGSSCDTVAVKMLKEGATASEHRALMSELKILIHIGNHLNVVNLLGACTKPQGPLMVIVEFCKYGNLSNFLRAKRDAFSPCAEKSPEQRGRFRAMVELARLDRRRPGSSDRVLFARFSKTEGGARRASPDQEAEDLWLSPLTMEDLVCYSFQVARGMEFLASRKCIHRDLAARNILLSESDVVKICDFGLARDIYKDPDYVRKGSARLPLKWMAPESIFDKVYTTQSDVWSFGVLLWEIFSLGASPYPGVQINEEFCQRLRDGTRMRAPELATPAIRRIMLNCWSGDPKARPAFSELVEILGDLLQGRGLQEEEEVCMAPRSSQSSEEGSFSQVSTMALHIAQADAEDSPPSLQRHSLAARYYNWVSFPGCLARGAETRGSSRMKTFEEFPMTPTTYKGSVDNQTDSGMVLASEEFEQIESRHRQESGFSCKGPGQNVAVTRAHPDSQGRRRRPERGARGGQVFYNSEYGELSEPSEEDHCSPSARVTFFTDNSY"}
{"data": "Study 1", "target": "tungstate, free oxyanion", "technique": "microfluidic competitive inhibition", "matrix": "in vitro, cell-free expressed", "concentration": "not given", "notes": "derived from inhibition constants, unchanged parent 2230 nM", "reading": "lower = stronger binding", "starting sequence": "PafA, mature enzyme, eGFP fusion (Elizabethkingia meningoseptica, UniProt Q9KJX5); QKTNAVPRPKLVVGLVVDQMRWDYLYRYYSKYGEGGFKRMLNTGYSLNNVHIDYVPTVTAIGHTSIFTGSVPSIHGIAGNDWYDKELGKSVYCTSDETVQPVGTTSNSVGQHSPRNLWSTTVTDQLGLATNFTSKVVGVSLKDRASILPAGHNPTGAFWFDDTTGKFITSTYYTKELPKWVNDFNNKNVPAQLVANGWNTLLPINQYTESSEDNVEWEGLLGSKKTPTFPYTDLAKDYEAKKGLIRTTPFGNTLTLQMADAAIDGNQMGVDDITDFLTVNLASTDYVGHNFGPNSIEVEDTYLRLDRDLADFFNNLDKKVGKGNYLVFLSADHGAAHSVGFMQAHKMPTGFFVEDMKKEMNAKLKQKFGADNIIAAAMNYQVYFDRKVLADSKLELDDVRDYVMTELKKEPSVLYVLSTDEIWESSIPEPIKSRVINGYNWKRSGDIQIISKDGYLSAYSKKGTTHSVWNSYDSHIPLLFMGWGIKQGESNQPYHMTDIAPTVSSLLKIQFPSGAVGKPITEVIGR"}
{"Change": "P154V", "oxyanion analog dissociation constant": "860 nM"}
{"Change": "I52G", "oxyanion analog dissociation constant": "2.66 µM"}
{"Change": "I450V", "oxyanion analog dissociation constant": "2.31 µM"}
{"Change": "T502V", "oxyanion analog dissociation constant": "1.14 µM"}
{"Change": "V416A", "oxyanion analog dissociation constant": "2.26 µM"}
{"Change": "W198G", "oxyanion analog dissociation constant": "1.13 µM"}
{"Change": "P101G", "oxyanion analog dissociation constant": "1.79 µM"}
{"Change": "T208V", "oxyanion analog dissociation constant": "2.7 µM"}
{"data": "Study 2", "target": "UDP-N-acetylglucosamine--peptide N-acetylglucosaminyltransferase 110 kDa subunit (OGT, Homo sapiens, UniProt O15294)", "effect on": "binding", "technique": "phage display NGS", "form": "peptide", "concentration": "concentration not given", "notes": "panning round 2", "baseline": "input library", "Construct (O15294 1-1046)": "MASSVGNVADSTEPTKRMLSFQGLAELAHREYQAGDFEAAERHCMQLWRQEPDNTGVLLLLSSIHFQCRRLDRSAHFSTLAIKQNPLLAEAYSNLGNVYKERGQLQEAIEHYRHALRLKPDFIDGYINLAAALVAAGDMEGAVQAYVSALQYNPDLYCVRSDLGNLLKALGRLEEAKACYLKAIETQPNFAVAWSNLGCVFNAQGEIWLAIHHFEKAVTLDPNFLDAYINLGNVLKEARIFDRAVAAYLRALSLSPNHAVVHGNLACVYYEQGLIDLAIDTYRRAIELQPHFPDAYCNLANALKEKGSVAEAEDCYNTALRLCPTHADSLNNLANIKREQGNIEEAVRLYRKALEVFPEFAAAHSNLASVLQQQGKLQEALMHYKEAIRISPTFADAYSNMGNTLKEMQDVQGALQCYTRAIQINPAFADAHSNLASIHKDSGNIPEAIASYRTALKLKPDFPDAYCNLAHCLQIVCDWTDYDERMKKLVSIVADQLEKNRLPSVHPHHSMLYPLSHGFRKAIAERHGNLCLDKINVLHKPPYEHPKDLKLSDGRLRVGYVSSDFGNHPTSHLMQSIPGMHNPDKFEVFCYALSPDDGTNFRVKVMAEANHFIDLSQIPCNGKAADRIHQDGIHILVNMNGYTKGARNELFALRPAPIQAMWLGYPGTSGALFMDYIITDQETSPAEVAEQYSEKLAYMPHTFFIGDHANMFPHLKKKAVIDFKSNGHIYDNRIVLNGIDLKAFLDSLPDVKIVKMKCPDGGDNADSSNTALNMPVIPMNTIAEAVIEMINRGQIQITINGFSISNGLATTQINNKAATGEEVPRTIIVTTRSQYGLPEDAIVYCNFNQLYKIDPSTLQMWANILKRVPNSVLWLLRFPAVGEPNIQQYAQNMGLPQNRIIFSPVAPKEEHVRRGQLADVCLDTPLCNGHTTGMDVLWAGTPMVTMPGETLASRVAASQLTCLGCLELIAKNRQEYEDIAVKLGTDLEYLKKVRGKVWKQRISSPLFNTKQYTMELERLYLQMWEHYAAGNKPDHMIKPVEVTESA"}
{"Sequence": "AQFTPKYMIIPNDWL", "enrichment fold change": 21.8}
{"Sequence": "DQGMTKDTHHIHTHH", "enrichment fold change": 7.14}
{"Sequence": "VWPPQNHVHSEMMRH", "enrichment fold change": 4.46}
{"Sequence": "HQPWPVAQHSHVHHR", "enrichment fold change": 5.18}
{"Sequence": "SYYRHDHVPQFYNKW", "enrichment fold change": 2.97}
{"Sequence": "SPWHHMHHHPTDSVA", "enrichment fold change": 4.71}
{"Sequence": "QNQPRYFPAYQIVAQ", "enrichment fold change": 6.25}
{"Sequence": "HWGGVHIDHHTVNV", "enrichment fold change": 7.14}
{"data": "Study 3", "target": "CCNE1, cyclin fold, Cln2 fusion (human)", "technique": "yeast growth competition, sequencing", "matrix": "yeast", "notes": "strong parent motif", "baseline": "not given", "reading": "higher = stronger binding", "starting sequence": "viral docking peptide; PGASRRLFGSSAD"}
{"Change": "PGASARAFGSSAD [R5A L7A]", "normalised enrichment score": 0.353}
{"Change": "PGASRRLFGASAD [S10A]", "normalised enrichment score": 1.11}
{"Change": "PGASARLFGSSAD [R5A]", "normalised enrichment score": 0.46}
{"Change": "AGASRRLFGSSAD [P1A]", "normalised enrichment score": 0.834}
{"Change": "PGASRRLFGSSAA [D13A]", "normalised enrichment score": 0.91}
{"Change": "PGASRRLFGSAAD [S11A]", "normalised enrichment score": 1.56}
{"Change": "PGASKRLLGSSAD [R5K F8L]", "normalised enrichment score": 0.265}
{"data": "Single results of other studies"}
{"Compound": "N/C(=N\\[N+](=O)[O-])N/N=C\\c1ccc(-c2cccc([N+](=O)[O-])c2)o1", "target": "Vascular endothelial growth factor receptor 3 (FLT4, Homo sapiens, UniProt P35916)", "test": "enzyme activity, inhibitor", "setting": "0.5 µM", "scale": "baseline: control", "endpoint": "remaining activity", "result": "86.3%"}
{"note": "For quick reference, copied from above (study 3):"}
{"Change": "PGASARAFGSSAD [R5A L7A]", "normalised enrichment score": 0.353}
